Experimental data collected from several papers.
Each numbered part is a random draw from the data of one study; scales do not carry over between parts. Changes are numbered by the printed parent chain.

Set 1 — technique: protein binding microarray; form: double-stranded DNA, one strand shown; sample: in vitro; tested at: not given; baseline: not given; reading: higher = stronger binding; measurement: E-score
Target: Histone acetyltransferase KAT6A, both winged helices, GST fusion (KAT6A, Homo sapiens, UniProt Q92794, residues 1-181)
Notes: 8-mer, flanks averaged, mean of 2 arrays, mostly near background
Construct (chain): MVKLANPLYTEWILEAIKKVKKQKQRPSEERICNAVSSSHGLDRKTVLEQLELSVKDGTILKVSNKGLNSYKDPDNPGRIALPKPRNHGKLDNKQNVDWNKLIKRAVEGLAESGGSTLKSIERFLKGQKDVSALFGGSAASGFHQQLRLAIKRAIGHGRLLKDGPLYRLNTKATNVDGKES
ATATAGGG: -0.0272
CTAGCCGA: 0.0691
CGTCTCGA: 0.0857
ACTCGCCA: -0.0875
AGTCTCAT: -0.247
TACTCATA: -0.0692
AGTCAGAC: -0.123
ACTTGGCT: -0.254
ATGCCACG: 0.00034
GAGGCTTA: -0.0797
CAATCGAG: -0.108
TGATTCAA: 0.0586
CAGGGAGC: -0.0646
TGGTCCAA: 0.00077
AGTTGTTA: -0.0312
CCTTTGTC: -0.0984

Set 2 — technique: universal PBM; form: double-stranded DNA, one strand shown; sample: in vitro; tested at: 600 nM; reading: higher = stronger binding; measurement: E-score
Target: Sal-like protein 4, full length isoform A (SALL4, Homo sapiens, UniProt Q9UJQ4, residues 1-1053)
UniProt Q9UJQ4, sequence (whole entry, looked up): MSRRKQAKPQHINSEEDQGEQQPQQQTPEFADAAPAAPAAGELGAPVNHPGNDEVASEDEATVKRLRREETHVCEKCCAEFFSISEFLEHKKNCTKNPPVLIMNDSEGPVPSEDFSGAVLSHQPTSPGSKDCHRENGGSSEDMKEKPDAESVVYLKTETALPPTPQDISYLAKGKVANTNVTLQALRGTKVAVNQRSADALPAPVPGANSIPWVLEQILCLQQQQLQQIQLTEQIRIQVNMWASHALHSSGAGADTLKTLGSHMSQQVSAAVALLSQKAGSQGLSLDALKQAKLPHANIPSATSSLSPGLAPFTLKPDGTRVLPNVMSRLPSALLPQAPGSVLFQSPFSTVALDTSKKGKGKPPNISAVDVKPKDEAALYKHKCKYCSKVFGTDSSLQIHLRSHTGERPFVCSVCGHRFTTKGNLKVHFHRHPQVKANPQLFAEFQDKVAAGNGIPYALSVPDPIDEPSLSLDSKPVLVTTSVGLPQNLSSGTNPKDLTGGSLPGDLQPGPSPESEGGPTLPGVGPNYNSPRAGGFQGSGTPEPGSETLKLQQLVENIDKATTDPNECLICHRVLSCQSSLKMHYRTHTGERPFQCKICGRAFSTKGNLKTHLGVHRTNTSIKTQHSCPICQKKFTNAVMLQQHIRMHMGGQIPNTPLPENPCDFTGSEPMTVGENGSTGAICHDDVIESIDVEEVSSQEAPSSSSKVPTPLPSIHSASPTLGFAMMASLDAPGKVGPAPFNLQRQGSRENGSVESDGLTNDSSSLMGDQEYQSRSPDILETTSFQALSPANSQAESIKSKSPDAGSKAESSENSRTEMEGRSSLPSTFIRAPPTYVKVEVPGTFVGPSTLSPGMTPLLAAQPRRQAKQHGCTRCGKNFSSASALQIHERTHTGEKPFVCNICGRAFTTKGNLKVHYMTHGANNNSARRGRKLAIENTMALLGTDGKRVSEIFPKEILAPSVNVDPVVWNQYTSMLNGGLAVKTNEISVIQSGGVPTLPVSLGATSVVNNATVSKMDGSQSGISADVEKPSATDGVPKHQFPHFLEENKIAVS
Notes: 8-mer, flanks averaged, mean of replicates
CATCCCGG: -0.256
CACCCAAC: -0.211
CCTGCGAA: -0.0489
ACCTGGAG: -0.103
ATCATGGA: 0.0765
CGCTCGCA: -0.237
ACGCACTA: -0.105
TAGGCTCA: -0.0812
AAAACAGA: 0.218
CATTAGTA: 0.196
ATTTCGGC: 0.069
AGGTTAGA: -0.0861
GCATCGCA: -0.171
AGGAGTTG: 0.0602
TAGCACCA: -0.11
GCAAATCC: -0.0213
CCGTAATA: 0.23
ACTTCTAA: 0.0398
ATCTTTGG: 0.0774
GGCTACCC: -0.386
CTTGGCTA: -0.0572
ACACTGGA: 0.0254
AAAATTGT: 0.346
CATTCGCA: 0.0934
AAGATACG: 0.226

Set 3 — target: CCNB1, cyclin fold, Cln2 fusion (human); technique: yeast growth competition, sequencing; sample: yeast; notes: strong parent motif; baseline: not given; reading: higher = stronger binding; measurement: normalised enrichment score
Parent: E2F1 docking peptide (human); PPVKRRLDFETDH
PPVKRRLDFKTDH [E10K]: 3.68
PPVCRRLDFETDH [K4C]: 5.03
PPVKRRQDFETDH [L7Q]: 0.184
PPVKRRLDFETCH [D12C]: 4.74
PPVKHRLDFETDH [R5H]: 0.947
PPVKRRRDFETDH [L7R]: 0.392
PPVKRRLDFETHH [D12H]: 5.06
PPVKRRLDFATDH [E10A]: 4.55
PPVKRFLDFETDH [R6F]: 2.65
PPVERRLDFETDH [K4E]: 5.23
PPVKRRLDFETLH [D12L]: 4.6
PPVKRSLDFETDH [R6S]: 3.52
PPVKRRLDFETSH [D12S]: 4.82
PPVKRRLDFETWH [D12W]: 4.77
PPVKRRLDFITDH [E10I]: 3.72
PPVHRRLDFETDH [K4H]: 4.6
PPVKRRLDNETDH [F9N]: 0.176
PPVKRRLDFYTDH [E10Y]: 4.11
PPVKRRLDFEPDH [T11P]: 5.03
PPVKRALDFETDH [R6A]: 3.64
PPVKRRLPFETDH [D8P]: 1.28
PPVGRRLDFETDH [K4G]: 3.18
PPVKRRLEFETDH [D8E]: 5.17
PHVKRRLDFETDH [P2H]: 4.48
PLVKRRLDFETDH [P2L]: 4.38

Set 4 — technique: RNA Bind-n-Seq; form: RNA; sample: in vitro; tested at: 200 nM; notes: whole 134-nt RNA, ends assumed; together with: 150 mM LiCl; baseline: input library; reading: higher = stronger binding; measurement: log2 enrichment; library: 7-deaza-guanosine replaces G
Target: Fragile X messenger ribonucleoprotein 1, C-terminal low-complexity region (Fmr1, Mus musculus, UniProt P35922)
Constant ends, left off below: GGGAGUUCUACAGUCCGACGAUC … UGGAAUUCUCGGGUGUCAAGG
CACAGACAACACGCACCCACAGAGACACAGAGGGAAGGGGUUGGGAUGGGGACAGGGUGCACAGCAGGGCGGGGUAGGACCCCAGCCCCU: 1.04
GUGCUACACAUCGUAUGUACCGAAUCGGGGAAAAAAAGGGGUUUUUUUGGGGAAAAAAAGGGGAAAGUAUUAUGUUACGCCGUUCGGAUC: -1.79
UGGGAGGUGGAUUUUGUUUAUUUUUUUAGCUCAUUUCCAGGGGUCGGAAUUUUUUUUUAAUAUGUGUCAUGAAUAAAGUUGUUUUUGAAA: -1.24
UAACUUUUGAGGAGGAUCUGAUGGAUAUGGCAGUGGACGUGGAUUUGGGGAUGGCUAUAAUGGGUAUGGAGGAGGACCUGGAGGUGGCAA: 0.403
AGUCCUGUGCUACACAUCGUAUGUACCGAAUCGGUUUUUUUGGUUUGGAAAAAAAGGAAAGUAUUAUGUUACGCCGUUCGGAUCUGCACU: -3.32
AGUCCUGUGCUACACAUCGUAUGUACCGAAUCAAAUUUAAACCCCCCCAAAUUUAAAAAAGUAUUAUGUUACGCCGUUCGGAUCUGCACU: 0.886
AGUCCUGUGCUACACAUCGUAUGUACCGAAUCGGGGUUUGGGGUUUGGGGAAAGGGGAAAGUAUUAUGUUACGCCGUUCGGAUCUGCACU: -0.845
AAGUCCUGUGCUACACAUCGUAUGUACCGAAUCGGGGAGGGGUUUUUGGGGAGGGGAAAGUAUUAUGUUACGCCGUUCGGAUCUGCACUU: 0.431

Set 5 — target: ATF7, bZIP domain (human); technique: DHFR protein complementation; sample: yeast; baseline: wild-type JUN-FOS pair; reading: higher = stronger binding; measurement: binding fitness
Notes: single substitutions, most at no-binding floor
Parent: JUN, bZIP domain (human); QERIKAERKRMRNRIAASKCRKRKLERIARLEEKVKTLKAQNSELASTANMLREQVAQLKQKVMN; partner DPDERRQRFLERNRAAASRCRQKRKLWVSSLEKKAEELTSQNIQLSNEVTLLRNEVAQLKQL
K36G: -1.2 natural log
S47C: -0.941 natural log
E54R: -1.04 natural log
A40G: -1.22 natural log
L45H: -1.43 natural log
E54V: -1.26 natural log
A49Y: -1.32 natural log
L31H: -1.63 natural log
I28S: -1.14 natural log
T37M: -0.585 natural log
V35Y: -1.33 natural log
E54C: -0.985 natural log
L31D: -1.45 natural log
E44T: -1.11 natural log
A57Q: -1.02 natural log
A29L: -1.11 natural log
L45M: -1.22 natural log
L52N: -1.38 natural log
L38G: -1.46 natural log
K39P: -1.48 natural log

Set 6 — technique: DHFR PCA, deep sequencing; sample: yeast; together with: (+)-ABA 2500 µM; baseline: wild-type fitted maximum; reading: higher = stronger binding; measurement: relative binding score
Target: ABI1, truncated, D143A, DHFR fusion (Arabidopsis thaliana)
Notes: methotrexate growth selection, single substitutions
Parent: PYL1, truncated, DHFR fusion (Arabidopsis thaliana); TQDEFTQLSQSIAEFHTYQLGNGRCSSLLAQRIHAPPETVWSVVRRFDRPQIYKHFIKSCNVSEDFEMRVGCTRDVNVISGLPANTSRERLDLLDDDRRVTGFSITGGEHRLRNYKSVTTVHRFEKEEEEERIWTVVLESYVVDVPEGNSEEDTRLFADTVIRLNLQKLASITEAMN; partner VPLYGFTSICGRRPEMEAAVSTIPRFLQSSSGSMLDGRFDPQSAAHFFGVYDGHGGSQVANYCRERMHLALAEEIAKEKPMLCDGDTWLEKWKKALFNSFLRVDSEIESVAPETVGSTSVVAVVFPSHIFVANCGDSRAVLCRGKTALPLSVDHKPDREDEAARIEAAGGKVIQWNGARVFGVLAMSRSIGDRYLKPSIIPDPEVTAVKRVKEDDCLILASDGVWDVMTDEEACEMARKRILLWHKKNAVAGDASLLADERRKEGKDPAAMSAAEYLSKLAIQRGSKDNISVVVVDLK
T173L: 86.2%
M176C: 90%
V118P: 13.9%
M68T: 93.7%
L166K: 2.06%
S26E: 80.5%
E147T: 94.1%
Q31T: 74.9%
T86I: 86.7%
R132Y: 89.5%
S150R: 89.4%
Q10T: 106%
I133E: 106%
R69W: 79.6%
D3G: 94.5%

For quick reference, copied from above (set 2):
ACACTGGA: 0.0254
ATCTTTGG: 0.0774
ATCATGGA: 0.0765
AGGTTAGA: -0.0861
AAAACAGA: 0.218
CATCCCGG: -0.256
CCGTAATA: 0.23
CGCTCGCA: -0.237
